Results collected from several papers.
A part holds a random share of what one study measured. Substitutions count along the parent as printed.

Study 1 — technique: universal PBM; form: double-stranded DNA, one strand shown; medium: in vitro; concentration: 600 nM; reading: higher = stronger binding
Target: Sal-like protein 4, full length isoform A (SALL4, Homo sapiens, UniProt Q9UJQ4, residues 1-1053)
UniProt Q9UJQ4, sequence (whole entry, looked up): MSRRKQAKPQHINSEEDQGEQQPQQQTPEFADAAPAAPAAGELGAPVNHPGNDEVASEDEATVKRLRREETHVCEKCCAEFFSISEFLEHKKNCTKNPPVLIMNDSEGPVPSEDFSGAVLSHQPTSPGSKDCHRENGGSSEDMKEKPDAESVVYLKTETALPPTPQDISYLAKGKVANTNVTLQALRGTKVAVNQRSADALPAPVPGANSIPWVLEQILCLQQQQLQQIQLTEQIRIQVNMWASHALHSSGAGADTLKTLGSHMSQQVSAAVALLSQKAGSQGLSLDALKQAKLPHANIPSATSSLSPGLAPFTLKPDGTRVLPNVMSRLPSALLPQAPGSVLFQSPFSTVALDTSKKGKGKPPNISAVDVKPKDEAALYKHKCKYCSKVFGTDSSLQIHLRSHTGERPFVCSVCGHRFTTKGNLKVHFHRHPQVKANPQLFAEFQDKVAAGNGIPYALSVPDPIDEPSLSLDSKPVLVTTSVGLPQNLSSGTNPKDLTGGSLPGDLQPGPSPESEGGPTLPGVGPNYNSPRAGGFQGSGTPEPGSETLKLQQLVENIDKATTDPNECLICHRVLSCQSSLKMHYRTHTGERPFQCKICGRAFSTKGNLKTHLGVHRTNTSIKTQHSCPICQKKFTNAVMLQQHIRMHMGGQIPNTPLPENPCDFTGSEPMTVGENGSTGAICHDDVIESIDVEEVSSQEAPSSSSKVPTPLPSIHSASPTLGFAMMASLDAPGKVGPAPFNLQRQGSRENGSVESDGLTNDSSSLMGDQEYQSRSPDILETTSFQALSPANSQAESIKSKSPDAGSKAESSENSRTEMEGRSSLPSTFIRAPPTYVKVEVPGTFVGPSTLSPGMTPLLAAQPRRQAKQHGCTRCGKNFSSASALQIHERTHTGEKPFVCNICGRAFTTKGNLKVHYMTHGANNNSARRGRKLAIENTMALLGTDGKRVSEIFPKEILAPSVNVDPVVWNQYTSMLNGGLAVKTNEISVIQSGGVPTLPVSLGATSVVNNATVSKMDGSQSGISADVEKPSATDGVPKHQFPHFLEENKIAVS
Setting: 8-mer, flanks averaged, mean of replicates
Strand	E-score
AGGCACCC	-0.291
CGCTTGCC	-0.155
ACTTTAAT	0.264
ACACTCAC	0.0702
AATTGAAC	0.142
CTACGAGA	-0.0145
AGGCAGGA	-0.0481
TGTGCACA	0.0885
ATGTTTGA	0.184
AAGCTCCT	-0.105
TAGAACTA	0.0722
CACACGAA	0.0572
ATTAGAGC	0.161
GAAGCTCC	-0.234
GCGACAAC	-0.132

Study 2 — target: CCND1, cyclin fold, Cln2 fusion (human); technique: yeast growth competition, sequencing; medium: yeast; setting: strong parent motif; baseline: not given; reading: higher = stronger binding
Starting sequence: RBL2 docking peptide (human); STTRRRLFVENDS
Variant	normalised enrichment score
STTRRRLFVEMDS [N11M]	0.977
HTTRRRLFVENDS [S1H]	1.01
ETTRRRLFVENDS [S1E]	-0.0606
STTRRRLDVENDS [F8D]	0.107
NTTRRRLFVENDS [S1N]	0.947
CTTRRRLFVENDS [S1C]	0.88
STTRRRLFVGNDS [E10G]	-0.0223
STTRRNLFVENDS [R6N]	0.485
STARRRLFVENDS [T3A]	2.69
STTRRRLFVEADS [N11A]	0.358
STTGRRLFVENDS [R4G]	-0.383
STNRRRLFVENDS [T3N]	-0.308

Study 3 — technique: DHFR PCA, deep sequencing; medium: yeast; added: (+)-ABA 1.4 µM; baseline: wild-type fitted maximum; reading: higher = stronger binding
Target: ABI1, truncated, D143A, DHFR fusion (Arabidopsis thaliana)
Setting: methotrexate growth selection, single substitutions
Starting sequence: PYL1, truncated, DHFR fusion (Arabidopsis thaliana); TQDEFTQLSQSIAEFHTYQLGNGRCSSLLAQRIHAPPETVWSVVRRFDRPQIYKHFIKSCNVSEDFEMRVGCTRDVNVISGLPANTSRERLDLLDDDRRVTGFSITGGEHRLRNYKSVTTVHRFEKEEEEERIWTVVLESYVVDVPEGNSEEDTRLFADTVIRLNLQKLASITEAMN; partner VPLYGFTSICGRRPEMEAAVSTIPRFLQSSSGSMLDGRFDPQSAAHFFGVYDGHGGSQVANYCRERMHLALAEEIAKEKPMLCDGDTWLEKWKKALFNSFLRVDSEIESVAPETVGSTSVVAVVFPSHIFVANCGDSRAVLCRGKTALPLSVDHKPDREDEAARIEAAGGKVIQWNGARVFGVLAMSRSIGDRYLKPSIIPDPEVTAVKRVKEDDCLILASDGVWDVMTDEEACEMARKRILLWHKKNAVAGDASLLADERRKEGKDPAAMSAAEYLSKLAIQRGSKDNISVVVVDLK
Variant	relative binding score [%]
D159E	27.1
P146Y	-22.4
K168E	-3.86
V137W	2.33
T86P	-5.7
S42P	8.3
L91Q	6.39
A13E	59.8
V142K	-14.8
R45P	10.7
D96C	-7.88
L112D	-8.09
F66K	19.8
R24C	25.3

Further values, each from its own experiment
Molecule	target	assay	test system	setting	scale	measurement	result
PhoQ, residues 284 288 289 292 302 303 SASVAL	PhoP, residues 12 14 15 18 19 NMSSL (Escherichia coli, UniProt P23836)	Sort-seq, measured: YFP reporter	E. coli	PhoQ-PhoP variant library, added: 10 µM Mg2+	baseline: high Mg2+ state, higher = stronger signaling	fold induction	13.2

For quick reference, copied from above (study 3):
Variant	relative binding score [%]
V137W	2.33
S42P	8.3
D96C	-7.88
R45P	10.7
